Measured values of several laboratories.
Lines come from different studies, so protocols differ. ± marks the error that the study gave.
SLC6A3: Sodium-dependent dopamine transporter (SLC6A3, Homo sapiens, UniProt Q01959)
UniProt Q01959, sequence (whole entry, unmodified, looked up): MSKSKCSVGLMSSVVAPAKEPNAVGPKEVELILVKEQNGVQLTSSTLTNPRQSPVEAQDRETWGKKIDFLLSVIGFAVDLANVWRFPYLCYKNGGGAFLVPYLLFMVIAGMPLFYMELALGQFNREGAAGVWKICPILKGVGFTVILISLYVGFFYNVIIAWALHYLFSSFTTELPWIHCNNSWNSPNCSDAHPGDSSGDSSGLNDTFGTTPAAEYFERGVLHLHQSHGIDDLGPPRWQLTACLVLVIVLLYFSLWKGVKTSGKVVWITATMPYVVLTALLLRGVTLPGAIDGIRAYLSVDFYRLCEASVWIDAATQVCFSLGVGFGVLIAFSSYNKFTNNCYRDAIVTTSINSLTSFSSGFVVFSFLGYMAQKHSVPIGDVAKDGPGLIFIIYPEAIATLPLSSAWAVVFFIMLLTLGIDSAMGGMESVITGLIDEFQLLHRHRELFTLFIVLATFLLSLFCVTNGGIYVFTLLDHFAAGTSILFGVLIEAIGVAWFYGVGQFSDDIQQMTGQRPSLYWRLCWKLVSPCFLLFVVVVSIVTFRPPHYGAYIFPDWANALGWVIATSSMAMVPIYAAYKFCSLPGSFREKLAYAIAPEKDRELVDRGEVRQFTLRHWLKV

COc1cc2c(cc1OC)CN(CCc1ccc(NC(=O)c3cccc4c(=O)c5cccc(OC)c5[nH]c34)cc1)CC2  Ki (SLC6A3; binding): > 10 µM
COc1ncccc1-c1cnn2ccc(N3CCN(C(=O)OC(C)C)CC3)nc12  IC50 (SLC6A3; liability screen): 29 µM
CNC(C)Cc1ccc2nonc2c1 (stereo not drawn)  EC50 (SLC6A3; transporter current, whole-cell patch clamp; HEK293; holding -60 mV): 3970 nM
Cc1cccc(C)c1N1C(=O)[C@H](CO)NC2(CCN(C)CC2)C1=O  Ki (SLC6A3; binding): > 10 µM
CN[C@@H](C)C(=O)c1ccccc1  EC50 (SLC6A3; peak current, two-electrode voltage clamp; Xenopus oocytes expressing hDAT; 1 min, -60 mV): 230 ± 30 nM
CN1CCN(CCOC(c2ccccc2)c2ccccc2)CC1  Ki (Sodium-dependent dopamine transporter (SLC6A3, Homo sapiens, UniProt Q01959, W84L); binding, [3H]CFT binding inhibition; HEK293; 15 min, 20 °C, with: 130 mM Na+): 0.335 ± 0.0094 µM
Cc1cccc(C)c1N1C(=O)[C@H](CC2CNc3ccccc32)NC2(CCN(C)CC2)C1=O (stereo partly drawn)  Ki (SLC6A3; binding): > 10 µM
CCCC(C(=O)c1ccc2c(c1)OCO2)N1CCCC1 (stereo not drawn)  EC50 (SLC6A3; leak current inhibition, two-electrode voltage clamp; Xenopus oocytes; holding potential -60 mV): 330 ± 70 nM
CN1[C@@H]2CC[C@H]1C[C@@H](OC(=O)c1ccccc1)C2  Ki (SLC6A3; binding, [3H]CFT binding inhibition; HEK293; 15 min, 20 °C, with: 130 mM Na+): 18.1 ± 2.98 µM
CNC(C)Cc1ccc2c(c1)OCO2 (stereo not drawn)  IC50 (SLC6A3): 6.2 ± 2.6 µM
c1ccc(C(OCCN2CCNCC2)c2ccccc2)cc1  Ki (SLC6A3; binding, [3H]CFT binding inhibition; HEK293; 15 min, 20 °C, with: 130 mM Na+): 0.462 ± 0.0286 µM
CNC(C)Cc1ccc2nsnc2c1 (stereo not drawn)  EC50 (SLC6A3; transporter current, whole-cell patch clamp; HEK293; holding -60 mV): 4290 nM

For quick reference, copied from above:
c1ccc(C(OCCN2CCNCC2)c2ccccc2)cc1  Ki (SLC6A3; binding, [3H]CFT binding inhibition; HEK293; 15 min, 20 °C, with: 130 mM Na+): 0.462 ± 0.0286 µM
CNC(C)Cc1ccc2nsnc2c1 (stereo not drawn)  EC50 (SLC6A3; transporter current, whole-cell patch clamp; HEK293; holding -60 mV): 4290 nM
